Assay results pooled from the literature.
Compare with care: the assays were run in different laboratories. ± gives the spread as reported.

Structure (SMILES) | tested on | test | system | conditions | scale | endpoint | value
N=C(N)c1ccc(-c2ccc(-c3cccs3)s2)cc1 | Salmonella typhimurium | liquid broth OD | TA1535 | 50 µM, 15 h | relative to: growth | viability | 64.5 ± 4.8%
C[n+]1cn(C2OC(COP(=O)(O)OP(=O)([O-])C(Cl)(Cl)P(=O)(O)O)C(O)C2O)c2nc(N)nc(O)c21 (centres unmarked) | – | cap-dependent translation, inhibitor | rabbit reticulocyte lysate | 60 min, 30 °C, no preincubation | – | IC50 | 970 ± 130 nM
CC[C@@](C)(NC)C(=O)NC(C)(C)C(=O)NC(C)(C)C(=O)NC(C)(C)C(=O)NCC(=O)NC(C)(C)C(=O)N1CCC[C@@H]1C(=O)N[C@@H](Cc1c[nH]c2ccccc12)C(=O)NC(C)(C)C(=O)N1C[C@H](O)C[C@@H]1C(=O)N[C@@H](C)C(=O)N[C@](C)(CC)C(=O)NCCCC(=O)N[C@@H](CC(C)C)C(=O)N[C@](C)(CC)C(=O)NC(C)(C)C(=O)N[C@](C)(CC)C(=O)N[C@H](CO)Cc1ccccc1 | – | binding, ITC | 10 to 30% methanol | 2 °C, with: POPG | – | Kd | 439 nM
Fc1ccc2c(c1)c1nc3ccc(Br)cc3c-1cn2Cc1cn(-c2ccccc2I)nn1 | Giardia duodenalis | – | – | – | relative to: Caco-2 CC50 over Giardia IC50 | selectivity index | 37.2
COc1ccc(S(=O)(=O)N(CC(F)(F)F)c2cnc(N(CC(=O)O)S(=O)(=O)c3ccc(OC)cc3)c3ccccc23)cc1 | Salmonella typhimurium | mini-Ames test | TA98 and TA100 | 100 µM, 90 min, with: S9 liver fraction | relative to: vehicle control | revertant increase | > 2 fold
Cc1cc(C#N)cc(C)c1Oc1nc(NC2CCN(Cc3cccc(F)c3)CC2)nc2ccccc12 | HIV-1 | – | TZM-bl, NL4-3 wild type | – | relative to: CC50 over EC50 | selectivity index | > 10.3
C=CCC1=C[C@@]2(C[C@@H](O)C(C)(C)O2)C2=C(C[C@@H]3C[C@H]4[C@H](C[C@]3(C)O2)C(=C)CCCC4(C)C)C1=O | coxsackievirus B3 | cytopathic effect | Vero, Nancy | – | relative to: CC50 over IC50 | selectivity index | 5.6
COc1ccc(C(=O)Nc2cc(-c3ccc(I)cc3)no2)cc1 [iodine-125 labelled] | – | radioligand saturation binding | Parkinson's disease human brain homogenate | – | – | Kd | 3.5 nM
Cc1csc(CCCNc2nc3c(c(=O)[nH]2)[n+](C)cn3C2OC(COP(=O)(O)OP(=O)([O-])OP(=O)(O)OCC3OC(n4cnc5c(=O)[nH]c(N)nc54)C(O)C3O)C(O)C2O)n1 (centres unmarked) | – | cap-dependent translation, inhibitor | rabbit reticulocyte lysate | with: ARCA-capped luciferase mRNA | – | IC50 | 1870 ± 80 nM
N#Cc1ccc(-c2ccc(-c3cccs3)s2)cc1 | Salmonella typhimurium | liquid broth OD | TA1535 | 100 µM, 15 h | relative to: growth | viability | 108 ± 7.3%
Cc1cc(C#N)cc(C)c1Oc1nc(NC2CCN(Cc3cccc(Cl)c3)CC2)nc2ccccc12 | HIV-1 | – | TZM-bl, NL4-3 wild type | – | relative to: CC50 over EC50 | selectivity index | > 9.92
Cc1nn(-c2ccc(S(=O)(=O)N[C@@H](CO)CC(C)C)cc2)c2nn3nnnc3nc12 | PC-3 | PI/Hoechst staining | – | 1 µM, 24 h | – | apoptotic cells | 9.5 ± 0.7%
COc1ccc(CNc2nc(N3CCC[C@H]3CO)ncc2C(=O)NN)cc1Cl | Salmonella typhimurium | – | TA98, TA100, TA1535, TA102, TA97a | 62.5 to 1000 µg/plate, 48 h, with and without S9 | relative to: solvent control | revertants relative to solvent | ≤ 2
Cc1ccc(CN2CCC(Nc3nc(Oc4c(C)cc(C#N)cc4C)c4ccccc4n3)CC2)cc1 | HIV-1 | – | TZM-bl, NL4-3 wild type | – | relative to: CC50 over EC50 | selectivity index | > 22.7
N=C(N)c1ccc(-c2ccc(-c3ccco3)o2)cc1 | Salmonella typhimurium | liquid broth OD | TA1535 | 25 µM, 15 h | relative to: growth | viability | 59.4 ± 3.7%
Cc1cc(C#N)cc(C)c1Oc1nc(NC2CCN(Cc3ccc(S(C)(=O)=O)cc3)CC2)nc2cccnc12 | HIV-1 | – | TZM-bl, NL4-3 wild type | – | relative to: CC50 over EC50 | selectivity index | 18000
N#Cc1ccc(-c2ccc(-c3ccco3)o2)nc1 | Salmonella typhimurium | OD | TA1535, liquid broth | 12.5 µM, 15 h | – | viability | ~40%
C[n+]1cn(C2OC(COP(=O)(O)OP(=O)([O-])OP(=O)(O)OCC3OC(n4cnc5c(=O)[nH]c(N)nc54)C(O)C3O)C(O)C2O)c2nc(NCc3ccc(Cl)cc3)[nH]c(=O)c21 (centres unmarked) | – | cap-dependent translation, inhibitor | rabbit reticulocyte lysate | with: ARCA-capped luciferase mRNA | – | IC50 | 980 ± 130 nM
C=CCC1=C[C@]2(C[C@H](O)C(C)(C)O2)C2=C(C[C@H]3C[C@H]4C(=C)CCCC(C)(C)[C@@H]4C[C@@]3(C)O2)C1=O | coxsackievirus B3 | cytopathic effect | Vero, Nancy | – | relative to: CC50 over IC50 | selectivity index | 1.7
C[n+]1cn(C2OC(COP(=O)(O)OP(=O)([O-])C(Cl)(Cl)P(=O)(O)OP(=O)(O)OCC3OC(n4cnc5c(=O)[nH]c(N)nc54)C(O)C3O)C(O)C2O)c2nc(N)nc(O)c21 (centres unmarked) | – | cap-dependent translation, inhibitor | rabbit reticulocyte lysate | 60 min, 30 °C, no preincubation | – | IC50 | 1340 ± 150 nM
N#Cc1ccc(-c2ccc(-c3ccco3)o2)cc1 | Salmonella typhimurium | liquid broth OD | TA1535 | 100 µM, 15 h | relative to: growth | viability | 113 ± 11.4%
Cc1cc(C#N)cc(C)c1Oc1nc(NC2CCN(Cc3ccc(Br)cc3)CC2)nc2ccccc12 | HIV-1 | – | TZM-bl, NL4-3 wild type | – | relative to: CC50 over EC50 | selectivity index | > 6.69
CC12CC(O)C3CC1(OC1OC(CO)C(O)C(O)C1O)C3(COC(=O)c1ccccc1)C(=O)O2 (centres unmarked) | Bifidobacterium breve | – | rat gut microbiota | 12 h, anaerobic, SD rat microbiota 100% | – | conversion | 74.5%
